Results pooled from the literature.
Lines come from different studies, so protocols differ. ± marks the error that the study gave.

C[C@H]1O[C@@H](O[C@H]2[C@@H](O)C[C@H](O[C@H]3[C@@H](O)C[C@H](O[C@H]4CC[C@@]5(C)[C@H](CC[C@@H]6[C@@H]5C[C@@H](O)[C@]5(C)[C@@H](C7=CC(=O)OC7)CC[C@]65O)C4)O[C@@H]3C)O[C@@H]2C)C[C@H](O)[C@@H]1O
Cmax (healthy volunteers, plasma; oral, dose not given, added: 2D regimen): 2.16 ng/mL

Cc1ncc2n1-c1ccc(Cl)cc1C(c1ccccc1F)=NC2
Cmax (healthy men, plasma; oral, 7.5 mg, day 26, arithmetic mean, added: 14 days post amenamevir): 39.5 ng/mL

CCCCCOc1ccc(-c2cc(-c3ccc(C(=O)N[C@H]4C[C@@H](O)[C@@H](O)NC(=O)[C@@H]5[C@@H](O)[C@@H](C)CN5C(=O)[C@H]([C@H](O)CC(N)=O)NC(=O)[C@H]([C@H](O)[C@@H](O)c5ccc(O)c(OS(=O)(=O)O)c5)NC(=O)[C@@H]5C[C@@H](O)CN5C(=O)[C@H]([C@@H](C)O)NC4=O)cc3)no2)cc1
Cmax (preterm neonates ≥1000 g, plasma; intravenous, 15 mg/kg/day, repeated dosing, mean): 38200 ng/mL

CC[C@H](C)C(=O)O[C@H]1C[C@H](O)C=C2C=C[C@H](C)[C@H](CC[C@@H](O)C[C@@H](O)CC(=O)O)[C@H]21
Cmax (healthy volunteers, plasma; oral, dose not given, given alone): 18.5 ng/mL

Cc1ncc2n1-c1ccc(Cl)cc1C(c1ccccc1F)=NC2
Cmax (healthy volunteers, plasma; oral, 8 mg, CYP3A probe, geometric mean, added: Echinacea purpurea for 28 days): 38 ng/mL

CNC(=O)c1ccc(-c2cnn3ccc(C(=O)N(C)c4ccc(Cl)c(C(=O)OC)c4)cc23)cc1
Cmax (neonatal calf, uninfected healthy, plasma; oral, 10 mg/kg): 0.059 µM

Cc1cc(=O)[nH]c2c1NC(=O)c1cccnc1N2C1CC1
Cmax (olive baboon (Papio anubis), non-pregnant, serum; oral, 10 mg/kg of nevirapine, solution, single dose): 2.82 ± 1.03 ng/mL

CCCCCOc1ccc(-c2cc(-c3ccc(C(=O)N[C@H]4C[C@@H](O)[C@@H](O)NC(=O)[C@@H]5[C@@H](O)[C@@H](C)CN5C(=O)[C@H]([C@H](O)CC(N)=O)NC(=O)[C@H]([C@H](O)[C@@H](O)c5ccc(O)c(OS(=O)(=O)O)c5)NC(=O)[C@@H]5C[C@@H](O)CN5C(=O)[C@H]([C@@H](C)O)NC4=O)cc3)no2)cc1
Cmax (young infants at least 1000 g, plasma; intravenous infusion, 7 mg/kg/day, day 4, mean, 1 h infusion, repeat dosing): 26600 ng/mL

O=C1c2c(c3c4ccc(O)cc4n([C@@H]4O[C@H](CO)[C@@H](O)[C@H](O)[C@H]4O)c3c3[nH]c4cc(O)ccc4c23)C(=O)N1NC(CO)CO
Cmax (cancer patients, plasma; intravenous infusion, 6 mg/m2, 1 h infusion, cycle 2, added: 5-FU/leucovorin): 59.2 ± 27.3 ng/mL

C=CCNC1=C2C[C@@H](C)C[C@H](OC)[C@H](O)[C@@H](C)/C=C(\C)[C@H](OC(N)=O)[C@@H](OC)/C=C\C=C(/C)C(=O)NC(=CC1=O)C2=O
Cmax (patients, plasma; intravenous, 150 mg/m2, cycle 1 day 4, added: bortezomib 0.7 mg/m2): 2590 ± 562 ng/mL

CC[C@H](C)CCCCC(=O)N[C@@H](CCN)C(=O)N[C@H](C(=O)N[C@@H](CCN)C(=O)N[C@H]1CCNC(=O)[C@H]([C@@H](C)O)NC(=O)[C@H](CCN)NC(=O)[C@H](CCN)NC(=O)[C@H](CC(C)C)NC(=O)[C@@H](Cc2ccccc2)NC(=O)[C@H](CCN)NC1=O)[C@@H](C)O
Cmax (HPLC-MS/MS; patients with acute kidney injury (RIFLE Injury), plasma; intravenous, dose not given, total concentration): 4040 ± 1590 ng/mL

CN(C)CCC[C@@]1(c2ccc(F)cc2)OCc2cc(C#N)ccc21
Cmax (healthy volunteers, plasma; oral, dose not given, added: 2D regimen): 8.86 ng/mL

CC[C@H](C)[C@H](NC(=O)[C@H](CCC(=O)O)NC(=O)[C@H](CCC(=O)O)NC(=O)[C@H](Cc1ccccc1)NC(=O)[C@H](CC(=O)O)NC(=O)CNC(=O)[C@H](CC(N)=O)NC(=O)CNC(=O)CNC(=O)CNC(=O)CNC(=O)[C@@H]1CCCN1C(=O)[C@H](CCCNC(=N)N)NC(=O)[C@@H]1CCCN1C(=O)[C@H](N)Cc1ccccc1)C(=O)N1CCC[C@H]1C(=O)N[C@@H](CCC(=O)O)C(=O)N[C@@H](CCC(=O)O)C(=O)N[C@@H](Cc1ccc(O)cc1)C(=O)N[C@@H](CC(C)C)C(=O)O
Cmax (PCI patients, plasma; intravenous, 0.75 mg/kg bolus, 5 to 10 min): 3.2 ± 0.7 µM

Cc1ncc2n1-c1ccc(Cl)cc1C(c1ccccc1F)=NC2
Cmax (healthy volunteers, plasma; oral, 7.5 mg single dose, day 1, geometric mean, alone): 36.8 ng/mL

C[C@@H](Oc1cc(-c2cnn(C3CCNCC3)c2)cnc1N)c1c(Cl)ccc(F)c1Cl
Cmax (patients; 215 mg/m^2, day 14, with dasatinib, median): 262 ng/mL

Cc1cc(C(C#N)c2ccc(Cl)cc2)c(Cl)cc1NC(=O)c1cc(I)cc(I)c1O (stereo not shown)
Cmax (parasitized Corriedale lambs, plasma; oral, 10 mg/kg, added: moxidectin 0.2 mg/kg oral): 78100 ± 21300 ng/mL

CC[C@H](C)[C@H](NC(=O)[C@@H](N)CCCNC(=N)N)C(=O)N[C@H](C(=O)N1CCC[C@H]1C(=O)N[C@@H](C)C(N)=O)C(C)C
Cmax (healthy volunteers, both sexes, plasma; intravenous infusion, 1.5 mg/kg daily, day 7, multiple ascending dose): 5540 ± 3720 ng/mL

CC(C)c1nc(N(C)S(C)(=O)=O)nc(-c2ccc(F)cc2)c1/C=C/[C@@H](O)C[C@@H](O)CC(=O)O
Cmax (healthy volunteers, plasma; oral, dose not given, given alone): 2.33 ng/mL

O=c1[nH]c(Cc2ccccn2)nc2c1cnn2C1CCOCC1
Cmax (healthy men, extensive metabolizers, plasma; oral, 350 mg single dose, tablet, geometric mean): 5.54 µM

For quick reference, copied from above:
Cc1ncc2n1-c1ccc(Cl)cc1C(c1ccccc1F)=NC2
Cmax (healthy men, plasma; oral, 7.5 mg, day 26, arithmetic mean, added: 14 days post amenamevir): 39.5 ng/mL

CCCCCOc1ccc(-c2cc(-c3ccc(C(=O)N[C@H]4C[C@@H](O)[C@@H](O)NC(=O)[C@@H]5[C@@H](O)[C@@H](C)CN5C(=O)[C@H]([C@H](O)CC(N)=O)NC(=O)[C@H]([C@H](O)[C@@H](O)c5ccc(O)c(OS(=O)(=O)O)c5)NC(=O)[C@@H]5C[C@@H](O)CN5C(=O)[C@H]([C@@H](C)O)NC4=O)cc3)no2)cc1
Cmax (preterm neonates ≥1000 g, plasma; intravenous, 15 mg/kg/day, repeated dosing, mean): 38200 ng/mL

CC[C@H](C)C(=O)O[C@H]1C[C@H](O)C=C2C=C[C@H](C)[C@H](CC[C@@H](O)C[C@@H](O)CC(=O)O)[C@H]21
Cmax (healthy volunteers, plasma; oral, dose not given, given alone): 18.5 ng/mL
